Experimental data of several laboratories.
A part holds a random share of what one study measured.

Study 1
Target: Interferon regulatory factor 5, full length, phosphomimetic (IRF5, Homo sapiens, UniProt Q13568-2, residues 1-514, K96S/S451D/S453D/S456D/S462D)
Method: protein-binding microarray
Form: double-stranded DNA, one strand shown
Sample: in vitro
Concentration: 250 nM
Notes: 60-bp whole probe
Together with: salmon DNA 0.4 mg/ml
Relative to: random background probes
Direction: higher = stronger binding
Endpoint: log fluorescence
All sequences stand within: GCCTAGCAC … GTCTTGATTCGCTTGACGCTGCTG
GATGGTCTCCTACTGCTGACGTGCTAG: -0.309 z-score
GACGGGTTCGACACTGGGGACGTGCTA: -0.458 z-score
ACAAGTTTCTCCTTTGTAAAGTGCTAG: 2.86 z-score
GACGGTTTCGACTTTCGGGGCGTGCTA: 7.31 z-score
GACGGTTTCGGTTTCGTGACGTGCTAG: 10.3 z-score
TCATCTCCAGGGTTTCTCACTGTGCTA: -0.00967 z-score
TTAGGACTGAGTATCGATTAGTGCTAG: 6.33 z-score
TTAGATATCGAGTATCGATTAGTGCTA: 6.83 z-score

Study 2
Target: Centromere-binding protein 1, full length, N-terminal tag (CBF1, Saccharomyces cerevisiae, UniProt P17106, residues 1-351)
Chain of UniProt P17106 (whole entry, looked up): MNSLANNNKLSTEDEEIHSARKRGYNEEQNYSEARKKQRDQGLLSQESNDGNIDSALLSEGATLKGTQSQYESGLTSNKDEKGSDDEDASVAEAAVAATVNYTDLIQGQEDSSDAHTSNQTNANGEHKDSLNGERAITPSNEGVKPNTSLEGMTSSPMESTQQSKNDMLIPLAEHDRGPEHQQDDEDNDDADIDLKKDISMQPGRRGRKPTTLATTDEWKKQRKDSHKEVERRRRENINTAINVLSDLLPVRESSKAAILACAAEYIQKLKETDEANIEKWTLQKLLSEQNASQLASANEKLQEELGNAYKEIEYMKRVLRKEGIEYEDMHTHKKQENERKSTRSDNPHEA
Method: protein-binding microarray
Form: double-stranded DNA, one strand shown
Sample: in vitro
Concentration: 0.8 µM
Notes: whole 60-bp probe, no competitor
Direction: higher = stronger binding
Endpoint: fluorescence intensity
GAATACAAAAAAAGGCATGTGGGTGAATTACAATAGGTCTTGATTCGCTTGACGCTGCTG: 661 a.u.
GAAGCACAGATACGTCATCAGGTACGAACACGATAGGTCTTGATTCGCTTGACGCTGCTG: 605 a.u.
CTATATAAAACTGCTCATCAGATTCATCCTGCTTTCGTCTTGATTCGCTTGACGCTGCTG: 509 a.u.
CTAAACGAAAACAGAGACGTGATAGATGAACGTTTCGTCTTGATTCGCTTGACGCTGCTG: 583 a.u.
GAATGCGGATACGGTCACGCATCCGCAGAACAGTAGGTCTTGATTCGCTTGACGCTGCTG: 1210 a.u.
GAACGCTGGCCGAAGGTGACAATGGCCTTATGATAGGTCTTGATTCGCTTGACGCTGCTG: 496 a.u.

Study 3
Target: Histone acetyltransferase KAT6A, both winged helices, GST fusion (KAT6A, Homo sapiens, UniProt Q92794, residues 1-181)
Method: protein binding microarray
Form: double-stranded DNA, one strand shown
Sample: in vitro
Concentration: not given
Notes: 8-mer, flanks averaged, mean of 2 arrays, mostly near background
Relative to: not given
Direction: higher = stronger binding
Endpoint: E-score
Target sequence (chain): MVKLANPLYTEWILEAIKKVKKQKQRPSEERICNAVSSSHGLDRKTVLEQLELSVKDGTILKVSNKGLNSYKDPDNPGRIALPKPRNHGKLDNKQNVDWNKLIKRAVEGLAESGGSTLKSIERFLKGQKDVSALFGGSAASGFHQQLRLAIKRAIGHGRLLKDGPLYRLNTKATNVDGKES
CTTCGAGC: 0.139
AGGGCTCC: -0.0727
GGAGCCTA: -0.111
CCTAGCCG: 0.133
TGTGGGAA: -0.166
CCAGGATA: -0.183
AGTAGGCG: 0.0013
ATGAGAAC: 0.000685
GTTTCGAA: 0.17
ACAGTGGA: -0.077
ATCCCAAA: -0.168
AAGCTAAA: -0.116
CAAATAGC: -0.0242

Single results of other studies
PhoQ, residues 284 288 289 292 302 303 TLMATV — fold induction (PhoP, residues 12 14 15 18 19 GQALL (Escherichia coli, UniProt P23836); Sort-seq, measured: YFP reporter; E. coli; PhoQ-PhoP variant library, together with: 10 µM Mg2+; relative to: high Mg2+ state, higher = stronger signaling): 23.1

For quick reference, copied from above (study 1):
GATGGTCTCCTACTGCTGACGTGCTAG: -0.309 z-score
GACGGGTTCGACACTGGGGACGTGCTA: -0.458 z-score
ACAAGTTTCTCCTTTGTAAAGTGCTAG: 2.86 z-score
GACGGTTTCGACTTTCGGGGCGTGCTA: 7.31 z-score
